Measured values of several laboratories.
± marks the error that the study gave.
Organism: Plasmodium falciparum

Structure (SMILES)	observed	method	strain	time	setting	IC50
Cc1ccc(C(C)C)cc1.Clc1ccc2c(NCCNCc3ccccn3)ccnc2c1.[Cl-].[Cl][Ru+]	parasite growth	parasite lactate dehydrogenase	Dd2 chloroquine-resistant			21900 ± 1000 nM
CC[C@H](C)[C@@H]1NC(=O)[C@H](CCCCN)NC(=O)[C@H](CCCCN)NC(=O)[C@H](Cc2ccc(O)cc2)NC(=O)[C@H](CC(C)C)NC(=O)[C@@H]2CCCN2C(=O)[C@H](C)NC(=O)CNC(=O)CNC(=O)[C@H](CO)NC(=O)CNC(=O)CNC(=O)[C@H](CO)NC(=O)[C@H](CCC(=O)O)NC(=O)[C@H](CC(C)C)NC(=O)[C@H](CC(C)C)NC(=O)[C@H](CCCCN)NC(=O)[C@H](CCCCN)NC(=O)[C@H]([C@@H](C)CC)NC(=O)[C@H]([C@@H](C)CC)NC(=O)[C@H](CCCCN)NC(=O)[C@H](CCCCN)NC(=O)[C@H](Cc2ccc(O)cc2)NC(=O)[C@H](CC(C)C)NC(=O)[C@@H]2CCCN2C(=O)[C@H](C)NC(=O)CNC(=O)[C@@H]2CSSC[C@H](NC(=O)[C@H](CC(C)C)NC(=O)[C@H](CCCCN)NC(=O)[C@H](CCCCN)NC(=O)[C@H]([C@@H](C)CC)NC1=O)C(=O)N[C@@H](CCC(=O)O)C(=O)N[C@@H](CO)C(=O)NCC(=O)N2	parasite growth		3D7	72 h	Albumax II medium, no serum	26300 ± 1900 nM
O=C(C=CC(Cc1ccccc1)Nc1ccnc2cc(Cl)ccc12)NCC(=O)N1CCNCC1 (centres unmarked)	parasite growth		K1		drug-resistant strain, blood stage	834 nM
CCCCCCCCc1cc(CN(Cc2ccccn2)Cc2ccccn2)c(O)c(CN(Cc2ccccn2)Cc2ccccn2)c1	growth	[3H]hypoxanthine incorporation	HB3 chloroquine-sensitive	48 h		195 ± 39 nM
CCC1=CC(c2ccc[nH]2)=NC1=CNC12CC3CC(CC(C3)C1)C2	parasite growth		Dd2, chloroquine-resistant			16 nM
CC1=N[C@H](C)Cc2c(-c3ccc4ccccc4c3)ccc(O)c21	parasite growth	SYBR Green	W2	96 h	drug-resistant strain, blood stage	866 nM
C[C@@H](C[C@@H](O)[C@H](O)C(C)(C)O)[C@@H]1CC[C@]2(C)C3=CC[C@H]4C(C)(C)C(=O)CC[C@]4(C)[C@H]3CC[C@@]12C		[3H]hypoxanthine incorporation	W2, chloroquine-resistant			36300 ± 4400 nM
CC1=CC(c2ccc[nH]2)=NC1=CNC1CCCCCC1	parasite growth		7G8, chloroquine-resistant			> 250 nM
CC[C@H](C)[C@@H]1NC(=O)[C@H](CCCCN)NC(=O)[C@H](CCCCN)NC(=O)[C@H](Cc2ccc(O)cc2)NC(=O)[C@H](CC(C)C)NC(=O)[C@@H]2CCCN2C(=O)[C@H](C)NC(=O)CNC(=O)CNC(=O)[C@H](CO)NC(=O)CNC(=O)CNC(=O)[C@H](CO)NC(=O)[C@H](CCC(=O)O)NC(=O)[C@H](CC(C)C)NC(=O)[C@H](CC(C)C)NC(=O)[C@H](CCCCN)NC(=O)[C@H](CCCNC(=N)N)NC(=O)[C@H]([C@@H](C)CC)NC(=O)[C@H]([C@@H](C)CC)NC(=O)[C@H](CCCCN)NC(=O)[C@H](CCCCN)NC(=O)[C@H](Cc2ccc(O)cc2)NC(=O)[C@H](CC(C)C)NC(=O)[C@@H]2CCCN2C(=O)CNC(=O)CNC(=O)[C@@H](NC(=O)CN)CSSC[C@@H](C(N)=O)NC(=O)[C@H](CC(C)C)NC(=O)[C@H](CCCCN)NC(=O)[C@H](CCCNC(=N)N)NC(=O)[C@H]([C@@H](C)CC)NC1=O	parasite growth		3D7	72 h	Albumax II medium, no serum	5100 ± 200 nM
COC1=CC(c2ccc[nH]2)=NC12OC(C)CC1CCCCCCCc3ccc([nH]3)C12 (centres unmarked)	parasite growth		7G8		drug-resistant strain, blood stage	1.5 nM
[N-]=[N+]=NCCc1cc(CN(Cc2ccccn2)Cc2ccccn2)c(O)c(CN(Cc2ccccn2)Cc2ccccn2)c1	growth	[3H]hypoxanthine incorporation	W2 chloroquine-resistant	48 h		217 ± 64 nM
Clc1ccc(C2=CC(c3ccc[nH]3)=NC2=CNC2CCCCCC2)cc1	parasite growth		Dd2, chloroquine-resistant			1250 nM
N#Cc1c(-c2ccco2)[n+]([O-])c2ccccc2[n+]1[O-]	parasite growth	[3H]hypoxanthine incorporation	K1 chloroquine-resistant			630 ± 180 nM
Clc1ccc(C2=CC(c3ccc[nH]3)=NC2=CNC2CCCCC2)cc1	parasite growth		Dd2, chloroquine-resistant			> 2500 nM
CC[C@H](C)[C@@H]1NC(=O)[C@H](CCCCN)NC(=O)[C@H](CCCCN)NC(=O)[C@H](Cc2ccc(O)cc2)NC(=O)[C@H](CC(C)C)NC(=O)[C@@H]2CCCN2C(=O)[C@H](C)NC(=O)CNC(=O)CNC(=O)[C@H](CO)NC(=O)CNC(=O)CNC(=O)[C@H](CO)NC(=O)[C@H](CCCCN)NC(=O)[C@H](CC(C)C)NC(=O)[C@H](CC(C)C)NC(=O)[C@H](CCCCN)NC(=O)[C@H](CCCCN)NC(=O)[C@H]([C@@H](C)CC)NC(=O)[C@H]([C@@H](C)CC)NC(=O)[C@H](CCCCN)NC(=O)[C@H](CCCCN)NC(=O)[C@H](Cc2ccc(O)cc2)NC(=O)[C@H](CC(C)C)NC(=O)[C@@H]2CCCN2C(=O)[C@H](C)NC(=O)CNC(=O)CNC(=O)[C@H](CO)NC(=O)CNC(=O)CNC(=O)[C@H](CO)NC(=O)[C@H](CCC(=O)O)NC(=O)[C@H](CC(C)C)NC(=O)[C@H](CC(C)C)NC(=O)[C@H](CCCCN)NC(=O)[C@H](CCCCN)NC(=O)[C@H]([C@@H](C)CC)NC1=O	parasite growth		3D7	72 h	Albumax II medium, no serum	3500 ± 400 nM
CCCCNCC(O)Cn1c2ccc(Cl)cc2c2cc(Cl)ccc21 (centres unmarked)		SYBR Green I	3D7 chloroquine-sensitive	72 h		248 ± 32 nM

Structure (SMILES)	observed	method	strain	time	setting	IC50
C=CC1CN2CCC1CC2C(OC(=O)NCCCCCCNC(=O)OC(c1ccnc2ccc(OC)cc12)C1CC2CCN1CC2C=C)c1ccnc2ccc(OC)cc12 (centres unmarked)	parasite growth		C4 Dd2 pfcrt transfectant			75 ± 11 nM
C[C@H]1C(=O)O[C@@H]2O[C@@]3(C)CC[C@@H]4[C@@]2(OO3)[C@H]1CC[C@]4(C)O	parasite growth	SYBR Green I	3D7, chloroquine-sensitive			64.1 nM
C1=CC(c2ccc[nH]2)=NC1=CNC12CC3CC(CC(C3)C1)C2	parasite growth		Dd2, chloroquine-resistant			295 nM
CC[C@H](C)[C@@H]1NC(=O)[C@H](CCCCN)NC(=O)[C@H](CCCCN)NC(=O)[C@H](Cc2ccc(O)cc2)NC(=O)[C@H](CC(C)C)NC(=O)[C@@H]2CCCN2C(=O)[C@H](C)NC(=O)CNC(=O)CNC(=O)[C@H](CO)NC(=O)CNC(=O)CNC(=O)[C@H](CO)NC(=O)[C@H](CCC(=O)O)NC(=O)[C@H](CC(C)C)NC(=O)[C@H](CC(C)C)NC(=O)[C@H](CCCCN)NC(=O)[C@H](CCCCN)NC(=O)[C@H]([C@@H](C)CC)NC(=O)[C@H]([C@@H](C)CC)NC(=O)[C@H](CCCCN)NC(=O)[C@H](CCCCN)NC(=O)[C@H](Cc2ccc(O)cc2)NC(=O)[C@H](CC(C)C)NC(=O)[C@@H]2CCCN2C(=O)CNC(=O)CNC(=O)CSC[C@@H](C(N)=O)NC(=O)[C@H](CC(C)C)NC(=O)[C@H](CCCCN)NC(=O)[C@H](CCCCN)NC(=O)[C@H]([C@@H](C)CC)NC1=O	parasite growth		3D7	72 h	5% serum plus Albumax II	~40000 nM
O=C1C(O)=C(CN2CCCC2)C(=O)c2ccccc21	parasite growth		W2		drug-resistant strain, blood stage	14100 nM
OCCCCCCCCCCCCOCCCc1cccnc1		anti-HRPII ELISA	W2 chloroquine-resistant	72 h		15100 ± 800 nM
CC[C@H](C)[C@@H]1NC(=O)[C@H](CCCCN)NC(=O)[C@H](CCCCN)NC(=O)[C@H](Cc2c[nH]c3ccccc23)NC(=O)[C@H](CC(C)C)NC(=O)[C@@H]2CCCN2C(=O)[C@H](C)NC(=O)CNC(=O)CNC(=O)[C@H](CO)NC(=O)CNC(=O)CNC(=O)[C@H](CO)NC(=O)[C@H](CCC(=O)O)NC(=O)[C@H](CC(C)C)NC(=O)[C@H](CC(C)C)NC(=O)[C@H](CCCCN)NC(=O)[C@H](CCCCN)NC(=O)[C@H]([C@@H](C)CC)NC(=O)[C@H]([C@@H](C)CC)NC(=O)[C@H](CCCCN)NC(=O)[C@H](CCCCN)NC(=O)[C@H](Cc2c[nH]c3ccccc23)NC(=O)[C@H](CC(C)C)NC(=O)[C@@H]2CCCN2C(=O)CNC(=O)CNC(=O)[C@@H](NC(=O)CN)CSSC[C@@H](C(N)=O)NC(=O)[C@H](CC(C)C)NC(=O)[C@H](CCCCN)NC(=O)[C@H](CCCCN)NC(=O)[C@H]([C@@H](C)CC)NC1=O	parasite growth		3D7	72 h	Albumax II medium, no serum	2200 ± 100 nM
CC1=CC(c2ccc[nH]2)=NC1=CNC12CC3CC(CC(C3)C1)C2	parasite growth		Dd2, chloroquine-resistant			15 nM
COc1cc2c3cc1Oc1cc(ccc1O)CC1c4c(cc(OC)c(O)c4Oc4ccc(cc4)CC3N(C)CC2)CCN1C (centres unmarked)	parasite growth	SYBR Green I	3D7			< 1000 nM
COC(=O)[C@@H]1Cc2c([nH]c3ccccc23)[C@@H](c2cccs2)N1	parasite growth			48 h	drug-resistant strain, blood stage	6.95 µg/mL
CCC1=C(C)C(c2ccc[nH]2)=NC1=CNC1CCCCCCC1	parasite growth		Dd2, chloroquine-resistant			201 nM
CC[C@H](C)[C@@H]1NC(=O)[C@H](CCCCN)NC(=O)[C@H](CCCCN)NC(=O)[C@H](Cc2ccc(O)cc2)NC(=O)[C@H](CC(C)C)NC(=O)[C@@H]2CCCN2C(=O)[C@H](C)NC(=O)CNC(=O)CNC(=O)[C@H](CO)NC(=O)CNC(=O)CNC(=O)[C@H](CO)NC(=O)[C@H](CCC(=O)O)NC(=O)[C@H](CC(C)C)NC(=O)[C@H](CC(C)C)NC(=O)[C@H](CCCCN)NC(=O)[C@H](CCCCN)NC(=O)[C@H]([C@@H](C)CC)NC(=O)[C@H]([C@@H](C)CC)NC(=O)[C@H](CCCCN)NC(=O)[C@H](CCCCN)NC(=O)[C@H](Cc2ccc(O)cc2)NC(=O)[C@H](CC(C)C)NC(=O)[C@@H]2CCCN2C(=O)CNC(=O)CNC(=O)[C@@H](NC(=O)CN)CSSC[C@@H](C(N)=O)NC(=O)[C@H](CC(C)C)NC(=O)[C@H](CCCCN)NC(=O)[C@H](CCCCN)NC(=O)[C@H]([C@@H](C)CC)NC1=O	parasite growth		3D7	72 h	Albumax II medium, no serum	6400 ± 200 nM
C(=NC12CC3CC(CC(C3)C1)C2)c1cc(-c2ccc[nH]2)c[nH]1	parasite growth		7G8, chloroquine-resistant			> 2500 nM
COc1ccc2cc1Oc1cc3c(cc1OC)CCN(C)C3Cc1ccc(cc1)Oc1c(O)c(OC)cc3c1C(C2)N(C)CC3 (centres unmarked)	parasite growth	SYBR green I	INDO			470 ± 77.9 nM
CC1(C2CC2)OOC2(CCN(C(=O)c3ccccc3)CC2)OO1	parasite growth	imaging	3D7	48 h	blood stage	44.6 nM
O=C(O)[C@@H]1Cc2c([nH]c3ccccc23)[C@@H](c2ccc(F)cc2I)N1	parasite growth		Dd2	72 h		970 ± 180 nM

Repeated from above:
Structure (SMILES)	observed	method	strain	time	setting	IC50
C(=NC12CC3CC(CC(C3)C1)C2)c1cc(-c2ccc[nH]2)c[nH]1	parasite growth		7G8, chloroquine-resistant			> 2500 nM
OCCCCCCCCCCCCOCCCc1cccnc1		anti-HRPII ELISA	W2 chloroquine-resistant	72 h		15100 ± 800 nM
COc1cc2c3cc1Oc1cc(ccc1O)CC1c4c(cc(OC)c(O)c4Oc4ccc(cc4)CC3N(C)CC2)CCN1C (centres unmarked)	parasite growth	SYBR Green I	3D7			< 1000 nM
